Earlier results as cited in several papers.
Numbered parts are unrelated; values within a part may stem from several laboratories. In brackets after ≈: the same amount, converted by molar mass.

Study 1 — organism: Cryptosporidium parvum; technique: high-throughput screen; concentration: concentration not given
Under activity, CCN(CC)CCOc1ccc(C(=C(Cl)c2ccccc2)c2ccccc2)cc1 is recorded as “inactive”.
CC(C)(C(=O)c1cccnc1)c1cccnc1 — result for activity: “inactive”.
Under activity, CN1C2CCCC1CC(NC(=O)c1nn(C)c3ccccc13)C2 (stereo not drawn) is recorded as “inactive”.

Single results of other studies
Cn1cncc1[C@](O)(COc1ccc(C#N)cc1-c1ccc(OC(F)(F)F)cc1)c1ccc(C#N)cc1 gave an IC50 of 0.73 nM (FNTB; cellular activity).
With O=C(c1cc(Cc2n[nH]c(=O)c3ccccc23)ccc1F)N1CCN(C(=O)C2CC2)CC1 the AUC(0-inf) was 12600 ng·h/mL (female; 80 mg/kg).
For Cc1cc(C)c(-n2ccn3nc(-c4cccnc4)cc23)cc1NC(=O)c1cc(C#N)cc(S(F)(F)(F)(F)F)c1, the Kd was 25 nM (EPHB6; KINOMEscan).
C=CC(=O)N1CCC[C@@H](n2nc(-c3ccc(Oc4ccccc4)cc3)c3c(N)ncnc32)C1 has a solubility of 2 µg/mL (≈ 4.54 µM).
CCCOc1ccc([C@@H]2[C@@H](C(=O)O)[C@H](c3ccc4c(c3)OCO4)CN2CC(=O)Nc2c(CC)cccc2CC)cc1 gave an IC50 of 1000 nM (EDNRB; cell-based).
Cc1ccc2nc(CNCCCOc3ccccc3)cc(O)c2c1 has an EC50 of 4.2 nM (DRD4 (human); biochemical).

For quick reference, copied from above (single results of other studies):
With O=C(c1cc(Cc2n[nH]c(=O)c3ccccc23)ccc1F)N1CCN(C(=O)C2CC2)CC1 the AUC(0-inf) was 12600 ng·h/mL (female; 80 mg/kg).
